Experimental data collected from several papers.
Lines come from different studies, so protocols differ. Values joined by “and” are separate records of one study, mostly repeats; a detail may differ. Numbers after ± are the reported error.

Compound	target or system	test	test system	setting	how to read	quantity	value
CC(C)c1c(C(=O)Nc2ccccc2)c(-c2ccccc2)c(-c2ccc(F)cc2)n1CC[C@@H]1C[C@@H](O)CC(=O)O1		reverse phase LC, C18	acetonitrile gradient, 0.1% formic acid	converted from retention time	baseline: Valko CHI standards	chromatographic hydrophobicity index	106
C=CC(=O)N1CCC(c2ccc(C(N)=O)c(-c3ccc(Oc4ccccc4)cc3)n2)CC1		serious adverse event Hypoglycemia	patients with relapsed/refractory MCL	oral		incidence	0.9%
Cc1cccc([C@H]2N[C@@H](c3ccc(Cl)c(Cl)c3)CO[C@@H]2C)c1		shake-flask, 1-octanol/buffer		pH 7.4		logD	> 4.7
C=CC(=O)NC1CCN(c2ncc3ncnc(Nc4ccc(Oc5ccc6c(c5)ncn6C)c(C)c4)c3n2)CC1			healthy male volunteers	intravenous then oral, dose not given, 1 week, oral 2 h after infusion		subjects with adverse events	29%
CCc1cc(C(=O)NC)c2nccc(N3CCc4c(cc(Cn5ccnc5)cc4-c4cn(C)nc4C(F)(F)F)C3=O)c2c1		measured: Lymph	Sprague Dawley rat	oral, 100 mg/kg once daily, 7 days	baseline: vehicle	change in clinical chemistry or haematology parameter	-23.9%
Cc1cc(-c2nccc3c2ccn3CC(=O)Nc2ccc(-c3cnccn3)cn2)ccn1			human	20 mg once daily, multiple ascending dose		subjects with suture rupture	0%
COc1cc2c3c(n(CCCN4CCOCC4)c(=O)c2cc1OC)-c1cc2c(cc1C3=O)OCO2			beagle dog, plasma	intravenous infusion, 1 h infusion		clearance	28 to 58 L/h/m²
CC(=O)N(C)C1CCN(c2cc(F)cc(NC(=O)c3cc4c(F)ccc(C)c4[nH]3)c2)C1 (stereo not shown)			CD1 mouse	oral, 50 mg/kg		MRT(0-inf)	2.9 h
Cc1cc(Nc2cc3ncccc3c(N[C@@H]3C[C@H]4CC[C@@H](C3)N4CCC#N)n2)n[nH]1			healthy human subjects	oral, 30 mg, 14 days, multiple ascending dose		skin subcutaneous disorders incidence	0%
C[C@@]1(c2cc(NC(=O)c3ccc(C#N)cn3)ccc2F)C=CSC(N)=N1			elderly humans, both sexes, plasma	oral, 3 mg single dose		dose-normalised AUC(0-inf)	86.3 ng·h/mL
CC[C@]1(O)C[C@H]2CN(CCc3c([nH]c4ccccc34)[C@@](C(=O)OC)(c3cc4c(cc3OC)N(C=O)[C@H]3[C@@](O)(C(=O)OC)[C@H](OC(C)=O)[C@]5(CC)C=CCN6CC[C@]43[C@@H]65)C2)C1	CHP-212 resistant subline R2 (heterozygous USP7 V517F)	cell viability		4.572 nM		viability	81.9%
CN1CCN(C(=O)CN(C)S(=O)(=O)c2ccc3ccccc3c2)CC1			octanol/buffer	pH 7.4		logD	1.8
CN(CCC#N)C1CCN(C(=O)Cn2cc(NC(=O)c3cnn4cccnc34)c(-c3cc(Cl)ccc3OC(F)F)n2)CC1			healthy human	1 mg once daily, day 42	baseline: baseline	LDL cholesterol change	-5.8 mg/dL
CCOc1c([C@H](C)n2nc(C)c3c(N)ncnc32)cc(Cl)c(F)c1[C@@H]1CNC(=O)C1		ECG	previously treated B-cell malignancy patients	oral, 20 mg once daily, baseline below thresholds		observations with HR ≤100 bpm	100%
CNCCOC12CC3(C)CC(C)(CC(Cn4ncc(-c5ccc(N6CCc7cccc(C(=O)Nc8nc9ccccc9s8)c7C6)nc5C(=O)O)c4C)(C3)C1)C2			beagle dog, male, anaesthetised	intravenous bolus, 0.03 mg/kg, 210 min	baseline: baseline	mean arterial pressure change	-33%
CCN1/C(=C/C(C)=O)Sc2ccc(F)cc21			cynomolgus monkey	oral, 100 mg/kg, 1 h post-dose	baseline: pre-dose	PR interval change	99.2 ± 2.4%
Fc1ccc([C@@H]2COC[C@H](c3ccc4c(c3)OCCO4)N2)c2ccccc12		shake-flask, 1-octanol/buffer		pH 7.4		logD	> 4.7
Cc1c(NS(=O)(=O)c2cccc3nonc23)c(=O)n(-c2ccccc2)n1C			octanol/buffer	pH 7.4		logD	0.99
Fc1ccc([C@@H]2COC[C@H](c3ccc(-c4ccccc4)cc3)N2)cc1		shake-flask, 1-octanol/buffer		pH 7.4		logD	> 4.7
CC(C)Nc1ccnc(Nc2cccc(-c3ccccc3)c2)n1			MDCKII-WT cells	10 µM, pH 7.4	baseline: Papp B-A over A-B	efflux ratio	2.33

Compound	target or system	test	test system	setting	how to read	quantity	value
CCCCCCCC(=O)c1c(OC)cc(OC)cc1C(=O)OC			mouse	intraperitoneal, 10 mg/kg, together with: cyclophosphamide	baseline: cyclophosphamide alone	kidney weight	decreased
C=CCn1c(=O)c2cnc(Nc3ccc(N4CCN(C)CC4)cc3)nc2n1-c1ccc2c(n1)[C@@](O)(CC)CC2			A-427, female NOD/SCID mouse xenograft, plasma	oral, 80 mg/kg once daily		AUC(0-24)	23600 ng·h/mL
COc1ncc(-c2nc3c(n2C(C)C)[C@H](c2ccc(Cl)cc2)N(c2cc(Cl)cn(C)c2=O)C3=O)c(OC)n1		LC-MS/MS	human, plasma	oral, 250 mg, cycle 2 day 1, high-dose arm		Cmax	1530 ng/mL
Cc1cc(/C=C/C#N)cc(C)c1Nc1ccnc(Nc2ccc(C#N)cc2)n1			human, haemodialysis patients, plasma	oral, dose not given, 24 h, steady state, fixed-dose combination		Ctau	50 ng/mL
Cc1nc2ccc(OCc3ccc(C(F)(F)F)cc3)cc2[nH]1			Balb/c mouse, male, kidney	oral, 10 mg/kg, 4 h		tissue concentration	5830 ± 627 ng/g
Cc1cn(-c2cc(NC(=O)c3ccc(C)c(Nc4nccc(-c5cccnc5)n4)c3)cc(C(F)(F)F)c2)cn1		population PK model, bootstrap	human, both sexes, plasma	oral		secondary depot absorption rate constant	0.141 h⁻¹
C=CCN1CC(=O)N2[C@@H](Cc3ccc(O)cc3F)C(=O)N(Cc3cccc(N4CC(N5CCN(CC)CC5)C4)n3)C[C@@H]2N1C(=O)NCc1ccccc1			advanced solid tumour patients	oral, 20 mg twice daily, any grade, dose-escalation		treatment-related diarrhoea	0%
CC(C)(C(=O)N1CCOc2c(C#N)cncc2C1)C(F)F		measured: vessel puncture site pain	healthy humans, both sexes	oral, 10 mg single dose		subjects with TEAE	0%
CC(C)c1nc(N(C)S(C)(=O)=O)nc(-c2ccc(F)cc2)c1/C=C/[C@@H](O)C[C@@H](O)CC(=O)O			cynomolgus monkey, suspended hepatocytes		unbound, scaled in vitro	passive intrinsic clearance	2.4 mL/min/kg
CCCCOC(=O)N1CCN(C(=O)[C@H](CP(=O)(O)O)NC(=O)c2cc(N3CC[C@H](OC)C3)nc(-c3ccccc3)n2)CC1			human	subcutaneous, 16 mg, 24 h post-dose	baseline: baseline	change in PR interval	-3.4 ± 11.9 ms
CC[C@H](CO)N(CCN(N=O)[C@H](CC)CO)N=O	Salmonella typhimurium	mutagenicity, Ames plate incorporation	TA98	1500 µg/plate, without S9, methanol		revertant colonies per plate	27.7 ± 2
CCC(CC)[C@H]1CO[C@H](C)[C@@H](c2cccc(Cl)c2)N1		shake-flask, 1-octanol/buffer		pH 7.4		logD	> 4.7
CC(C)(C)CC(C)(C)c1ccc(O)c(-n2nc3ccccc3n2)c1			reconstructed human epidermis EpiSkin	36 h		cumulative dermal absorption	92.4 ± 1.5%
O=C(Nc1ccc(S(=O)(=O)Nc2ncccn2)cc1)c1c(Cl)cccc1Cl			octanol/buffer	pH 7.4		logD	0.83
CC(C)C[C@H](NC(=O)[C@H]1O[C@@H]1C(=O)O)C(=O)NCCCCN=C(N)N			PBS	100 µM, 23 h, pH 7.45, 37 °C, together with: GSH 5 mM		GSH adduct formation	64%
N#Cc1ccc2c(c1)[C@H]1CCCN(C(=O)c3ccc4[nH]cnc4c3)[C@H]1C2			human males	40 mg, day 7		SHBG level	39.6 nmol/L
Oc1ccc(/C=C/c2cc(O)cc(O)c2)cc1			rat, azoxymethane-injected, blood at sacrifice	100 mg/kg		sodium	144 mEq/L and 145 mEq/L and 148 mEq/L
C[C@H]1Oc2cc(cnc2N)-c2c(nn(C)c2C#N)CN(C)C(=O)c2ccc(F)cc21		population PK	normal renal function patients, plasma	oral, 100 mg once daily, cycle 1 day 15, steady state		CL	253 mL/min
CCn1cc(C(=O)N2CCOCC2)c(=O)c2cc(NC3Cc4ccccc4C3)cnc21			human female, fed, plasma	oral, 900 mg twice daily, day 7, tablet, arithmetic mean		half-life	5.34 h
c1ccc(CN2CCCN3CCN(Cc4ccccc4)CCCN(CC2)Cc2cccc(n2)C3)cc1			64Cu complex	24 h, 70 °C, together with: DOTA excess		intact complex	91%

Compound	target or system	test	test system	setting	how to read	quantity	value
CN(CCC(=O)O)C(=O)c1ccc2c(c1)CC[C@@H]1[C@@H]2CC[C@]2(C)C(c3cncc(F)c3)=CC[C@@H]12			premenopausal women, endometriosis pain, serum	60 mg twice daily, visit 6, median	baseline: baseline	direct bilirubin change	0.175 mg/dL
Cc1ccc([C@@H]2O[C@H](CO)[C@@H](O)[C@H](O)[C@H]2O)cc1Cc1ccc(-c2ccc(F)cc2)s1			human haemodialysis patients, blood	100 mg or 300 mg, safety monitoring		beta-hydroxybutyrate level	< 0.42 mmol/L
CC[C@H](C)[C@@H]1NC(=O)[C@H](CCCCN)NC(=O)[C@@H]2CCCN2C(=O)[C@@H]2CSSC[C@@H]3NC(=O)[C@H](C)NC(=O)CNC(=O)[C@@H]4CCCN4C(=O)[C@@H]4CSSC[C@H](NC(=O)[C@H](Cc5ccc(O)cc5)NC(=O)CNC(=O)CNC(=O)[C@H]5CCCN5C(=O)[C@H](CCCNC(=N)N)NC(=O)[C@H](CSSC[C@H](NC(=O)[C@H](CCCCN)NC(=O)[C@H](CCCCN)NC(=O)[C@H](CC(C)C)NC1=O)C(=O)N[C@@H](CCCNC(=N)N)C(=O)N[C@@H](CCCNC(=N)N)C(=O)N[C@@H](CC(=O)O)C(=O)N[C@@H](CO)C(=O)N[C@@H](CC(=O)O)C(=O)N4)NC(=O)[C@H]([C@@H](C)CC)NC3=O)C(=O)NCC(=O)N[C@@H](CO)C(=O)NCC(=O)N[C@@H](CO)C(=O)N[C@@H](CC(=O)O)C(=O)NCC(=O)NCC(=O)N[C@@H](C(C)C)C(=O)N2		RP-HPLC	NH4HCO3 without redox agents	72 h, pH 8.5, room temperature, oxidative folding		conversion to native product	75%
[O]=[Co].[O]=[Co][O][Co]=[O]			rat, female, faeces, 24-h collection	oral gavage, single, 300 mg/kg (220 mg Co/kg), day 2, vehicle 0.5% HPMC	baseline: vehicle control subtracted	cobalt concentration	234 µg/g
CCCCCN1C[C@H](O)[C@@H](O)[C@H](O)[C@@H]1CO		LC-MS/MS	Hexb-/- mice, total, brain	30 mg/kg/day		geometric mean brain concentration	37 ng/g
COc1ccc(CNc2nc(-c3ccc(C(=O)O)cc3)nc3c2c2ccccc2n3C)cc1Cl			NSG mice	dose not given, day 4		body weight	24.3 g and 23.7 g and 25.2 g and 21.1 g
CCN1CCN(Cc2ccc(Nc3ncc(F)c(-c4cc(F)c5nc6n(c5c4)[C@H](C)CCC6)n3)nc2)CC1			human, plasma	50 mg multiple dosing, mean		CL/F	30.4 L/h
CNc1cc[n+](CCNC(=O)c2ccn3c(-c4c(C)noc4C)cnc3c2)cc1.[Cl-]			aqueous buffer	initial, pH 10		largest degradation product	not detected
O=c1ccc2ccc(O)cc2o1		metabolic stability	rat liver S9	2 µM, pH 7.4		CLint scaled	787 mL/min/kg
C/C(=N\c1ccc(O)cc1)c1cc2ccccc2n1C			processed rat plasma sample	0.78 ng/mL, 24 h, room temperature, autosampler tray	baseline: nominal	remaining compound	97.4 ± 6.3%
Cc1cc(NC2CCN(C(=O)OC3CCN(C(=O)/C=C/CN(C)C)C3)CC2)n2ncc(C(C)C)c2n1 (stereo not shown)		Phase I dose escalation CTCAE v4.0, measured: back pain	patients with advanced solid tumours	dose not given, Total dosing grade 3 or higher		patients with adverse event	0%
Cc1ccc(N(C)C(=O)/C=C/c2ccco2)cc1		cold plate test	mouse	oral, 30 mg/kg daily for 7 days, day 8, 30 min after dose		licking latency	20.2 ± 0.8 s
Cl.[2H]C([2H])([2H])CC(=O)c1cnc(NC(=O)C2CC2)cc1Nc1cccc(-c2ncn(C([2H])([2H])[2H])n2)c1OC		geometric mean	human	20 mg twice daily, day 1, fed, liquid, multiple dose		CL/F	19.2 L/h
CSc1ccc(S(=O)(=O)NCc2ccccn2)cc1			octanol/buffer	pH 7.4		logD	2.19
COc1cc2c3cc1Oc1c(OC)c(OC)cc4c1[C@@H](Cc1ccc(O)c(c1)Oc1ccc(cc1)C[C@@H]3N(C)CC2)N(C)CC4			mouse plasma, K3EDTA	2 h, 37 °C		remaining compound	96%
O=C(O)CCC(=O)O.[2H]C([2H])([2H])Oc1cc(C)c2[nH]ccc2c1CN1CC[C@@H](C2CC2)C[C@H]1c1ccc(C(=O)O)cc1			healthy Chinese subjects	125 mg twice daily, multiple ascending dose		subjects with drug-related TEAE	37.5%
COc1cc2c(cc1OC)CN(CCc1ccc(NC(=O)c3cccc4c(=O)c5cccc(OC)c5[nH]c34)cc1)CC2			Sprague Dawley rats, plasma	iv infusion, 0.09 mg/h/kg, 4 h		total plasma concentration	34.4 ng/mL
FC(F)(F)c1ccc(CNc2ccc(Cc3c[nH]c4ncc(Cl)cc34)cn2)cn1		measured: Pyrexia	patients with advanced solid tumours	oral, dose not given, grade 3 and 4, possibly related to drug		adverse event incidence	0%
